Earlier results as cited in several papers.
Lines come from different studies, so protocols differ. Numbers after ± are the reported error.
UniProt Q8NBP7, sequence (whole entry, looked up): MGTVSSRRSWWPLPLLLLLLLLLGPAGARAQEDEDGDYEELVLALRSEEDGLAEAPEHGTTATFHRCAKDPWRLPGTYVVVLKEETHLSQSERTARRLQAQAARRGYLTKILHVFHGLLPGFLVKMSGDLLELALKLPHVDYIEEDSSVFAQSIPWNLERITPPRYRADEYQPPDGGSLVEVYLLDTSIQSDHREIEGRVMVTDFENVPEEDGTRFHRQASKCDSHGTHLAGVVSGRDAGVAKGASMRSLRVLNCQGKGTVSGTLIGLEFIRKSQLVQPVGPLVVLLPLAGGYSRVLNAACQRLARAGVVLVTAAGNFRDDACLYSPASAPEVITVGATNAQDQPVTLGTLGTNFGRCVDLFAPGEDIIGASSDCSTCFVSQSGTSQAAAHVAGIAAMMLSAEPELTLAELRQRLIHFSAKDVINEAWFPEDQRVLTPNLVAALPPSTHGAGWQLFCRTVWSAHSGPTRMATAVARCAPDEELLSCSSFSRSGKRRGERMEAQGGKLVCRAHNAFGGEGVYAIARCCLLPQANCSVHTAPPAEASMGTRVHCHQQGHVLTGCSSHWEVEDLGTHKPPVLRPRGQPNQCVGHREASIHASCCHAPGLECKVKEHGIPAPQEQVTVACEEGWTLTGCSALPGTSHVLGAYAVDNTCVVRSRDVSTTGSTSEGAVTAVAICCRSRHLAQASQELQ
UniProt P21397, sequence (whole entry, looked up): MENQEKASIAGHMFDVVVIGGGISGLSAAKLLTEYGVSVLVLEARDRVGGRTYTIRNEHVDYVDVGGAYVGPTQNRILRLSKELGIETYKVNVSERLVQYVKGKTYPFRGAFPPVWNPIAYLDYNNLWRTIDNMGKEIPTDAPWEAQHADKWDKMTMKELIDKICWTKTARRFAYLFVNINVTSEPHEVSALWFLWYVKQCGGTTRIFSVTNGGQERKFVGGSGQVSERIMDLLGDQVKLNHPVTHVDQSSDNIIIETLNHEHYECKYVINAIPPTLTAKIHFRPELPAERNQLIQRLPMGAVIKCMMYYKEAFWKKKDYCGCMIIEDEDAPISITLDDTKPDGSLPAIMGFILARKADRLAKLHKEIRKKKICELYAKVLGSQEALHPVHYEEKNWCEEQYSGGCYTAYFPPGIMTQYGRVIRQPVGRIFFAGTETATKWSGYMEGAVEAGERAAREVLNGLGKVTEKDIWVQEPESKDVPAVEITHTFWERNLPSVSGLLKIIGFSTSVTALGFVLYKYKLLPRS
UniProt Q86U86, sequence (whole entry, looked up): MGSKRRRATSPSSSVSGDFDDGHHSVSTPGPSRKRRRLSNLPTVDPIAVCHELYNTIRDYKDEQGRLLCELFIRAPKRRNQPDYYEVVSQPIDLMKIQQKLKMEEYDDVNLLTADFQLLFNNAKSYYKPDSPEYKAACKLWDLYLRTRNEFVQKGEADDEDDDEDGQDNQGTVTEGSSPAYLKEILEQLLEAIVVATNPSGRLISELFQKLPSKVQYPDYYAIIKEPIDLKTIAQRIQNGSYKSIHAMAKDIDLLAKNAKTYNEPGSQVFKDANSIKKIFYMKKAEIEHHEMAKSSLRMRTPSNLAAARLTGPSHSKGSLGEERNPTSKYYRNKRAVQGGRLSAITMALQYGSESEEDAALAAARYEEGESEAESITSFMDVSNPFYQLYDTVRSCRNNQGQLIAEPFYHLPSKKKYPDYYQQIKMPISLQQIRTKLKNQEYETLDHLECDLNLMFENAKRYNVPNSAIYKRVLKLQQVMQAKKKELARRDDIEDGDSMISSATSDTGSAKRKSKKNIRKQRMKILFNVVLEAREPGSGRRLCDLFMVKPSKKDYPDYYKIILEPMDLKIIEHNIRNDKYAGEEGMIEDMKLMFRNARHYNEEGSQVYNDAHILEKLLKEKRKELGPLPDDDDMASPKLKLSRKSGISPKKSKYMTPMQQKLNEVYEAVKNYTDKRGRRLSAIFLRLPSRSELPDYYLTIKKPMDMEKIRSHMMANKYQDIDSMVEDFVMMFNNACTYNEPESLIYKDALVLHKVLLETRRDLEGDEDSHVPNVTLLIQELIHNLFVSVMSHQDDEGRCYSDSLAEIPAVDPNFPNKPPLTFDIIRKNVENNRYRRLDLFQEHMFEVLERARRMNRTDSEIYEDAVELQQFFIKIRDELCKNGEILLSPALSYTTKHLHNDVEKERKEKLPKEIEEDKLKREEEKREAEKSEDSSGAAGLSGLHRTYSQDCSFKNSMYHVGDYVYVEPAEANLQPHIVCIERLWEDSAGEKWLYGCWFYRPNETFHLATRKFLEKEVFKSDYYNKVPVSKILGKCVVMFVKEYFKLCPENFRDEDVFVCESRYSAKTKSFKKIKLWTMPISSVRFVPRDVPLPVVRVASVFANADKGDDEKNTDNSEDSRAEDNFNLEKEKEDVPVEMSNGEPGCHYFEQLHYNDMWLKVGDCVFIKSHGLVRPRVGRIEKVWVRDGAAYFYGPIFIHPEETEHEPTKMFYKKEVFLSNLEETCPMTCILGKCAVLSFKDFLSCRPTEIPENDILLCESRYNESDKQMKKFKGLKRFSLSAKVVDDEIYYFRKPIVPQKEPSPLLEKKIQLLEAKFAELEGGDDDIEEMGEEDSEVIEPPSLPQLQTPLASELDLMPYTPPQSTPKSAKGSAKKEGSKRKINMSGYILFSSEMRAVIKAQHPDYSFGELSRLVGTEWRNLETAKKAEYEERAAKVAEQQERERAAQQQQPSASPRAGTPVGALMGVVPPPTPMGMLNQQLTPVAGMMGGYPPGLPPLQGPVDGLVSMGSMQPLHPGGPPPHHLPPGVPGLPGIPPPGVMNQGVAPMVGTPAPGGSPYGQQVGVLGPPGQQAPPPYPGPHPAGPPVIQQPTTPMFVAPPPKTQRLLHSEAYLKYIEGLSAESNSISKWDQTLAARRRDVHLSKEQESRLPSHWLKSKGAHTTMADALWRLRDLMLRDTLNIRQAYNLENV
UniProt C7C422, sequence (whole entry, looked up): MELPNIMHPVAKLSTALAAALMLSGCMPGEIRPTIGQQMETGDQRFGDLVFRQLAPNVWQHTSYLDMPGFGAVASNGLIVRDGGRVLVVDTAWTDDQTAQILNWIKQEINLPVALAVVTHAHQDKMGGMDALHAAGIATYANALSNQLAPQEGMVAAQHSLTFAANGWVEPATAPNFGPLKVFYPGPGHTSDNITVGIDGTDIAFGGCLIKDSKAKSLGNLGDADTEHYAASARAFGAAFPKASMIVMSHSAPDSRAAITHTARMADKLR
UniProt P21554, sequence (whole entry, looked up): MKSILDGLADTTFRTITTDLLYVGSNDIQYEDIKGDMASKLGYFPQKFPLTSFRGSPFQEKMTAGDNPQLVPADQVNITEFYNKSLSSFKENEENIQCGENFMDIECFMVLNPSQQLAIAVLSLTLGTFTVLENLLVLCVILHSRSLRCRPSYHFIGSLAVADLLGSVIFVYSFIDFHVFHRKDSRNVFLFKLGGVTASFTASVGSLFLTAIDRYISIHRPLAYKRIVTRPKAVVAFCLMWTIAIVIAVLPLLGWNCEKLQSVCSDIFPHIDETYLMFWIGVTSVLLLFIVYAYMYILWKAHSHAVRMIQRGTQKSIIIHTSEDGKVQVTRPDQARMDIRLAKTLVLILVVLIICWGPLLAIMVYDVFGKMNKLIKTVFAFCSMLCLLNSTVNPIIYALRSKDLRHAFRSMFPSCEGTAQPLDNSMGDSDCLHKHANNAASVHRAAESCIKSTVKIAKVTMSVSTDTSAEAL
UniProt P63104, sequence (whole entry, looked up): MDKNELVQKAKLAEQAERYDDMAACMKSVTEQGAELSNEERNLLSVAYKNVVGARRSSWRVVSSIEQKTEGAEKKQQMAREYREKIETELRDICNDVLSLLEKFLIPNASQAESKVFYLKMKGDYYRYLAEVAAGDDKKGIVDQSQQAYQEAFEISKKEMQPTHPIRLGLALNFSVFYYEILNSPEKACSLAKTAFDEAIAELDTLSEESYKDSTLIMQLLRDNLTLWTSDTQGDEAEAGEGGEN

SMILES | target | assay | setting | measurement | result
CCCCCCCCCc1c(C(=O)NCCc2ccc(N3CCCCC3)cc2)[nH]c2ccc(Cl)cc12 | Cannabinoid receptor 1 (CNR1, Homo sapiens, UniProt P21554) | allosteric modulator, radioligand binding | together with: [3H]CP55,940 | Kb | 260 nM
CC(C)C[C@@H]1NC(=O)[C@H](CCCNC(=N)N)NC(=O)[C@H](Cc2c[nH]c3ccccc23)NC(=O)[C@H](CC(C)C)NC(=O)[C@H](CC(N)=O)NC(=O)[C@](C)(NC(=O)[C@H](Cc2ccccc2)NC(=O)[C@@H](NC(=O)[C@H](CCC(N)=O)NC(=O)[C@H](CCC(N)=O)NC(=O)[C@H](CO)NC(=O)[C@H](CCC(N)=O)NC(=O)CCNC(=S)Nc2ccc3c(c2)C(=O)OC32c3ccc(O)cc3Oc3cc(O)ccc32)[C@@H](C)O)CCCCCCC=CCCC[C@@](C)(C(=O)N[C@@H](CCC(N)=O)C(=O)N[C@@H](CC(N)=O)C(N)=O)NC(=O)[C@H](CC(C)C)NC1=O | HDM2 | – | – | Kd | 55 ± 11 nM
COC(=O)C1C(OC(c2ccc(Cl)cc2)c2ccc(Cl)cc2)CC2CCC1N2C (single isomer, unassigned) | muscarinic M1 receptor | – | – | Ki | 382 ± 37 nM
CC[C@H](C)[C@H](NC(=O)[C@@H]1CCCN1C(=O)[C@@H]1CCCN1C(=O)[C@@H]1CCCN1C(=O)[C@H](C)NC(=O)[C@@H]1CCCN1C(=O)[C@H](CCCNC(=N)N)NC(=O)[C@H](CC(C)C)NC(=O)[C@H](CO)NC(=O)[C@@H]1CCCN1C(=O)[C@H](C)NC(=O)[C@H](CCC(=O)O)NC(=O)[C@H](CCC(=O)O)NC(=O)[C@H](CCCNC(=N)N)NC(=O)[C@H](CCCCN)NC(=O)[C@H](CCCCN)NC(=O)[C@H](CC(=O)O)NC(=O)[C@H](CC(C)C)NC(=O)[C@@H]1CCCN1C(=O)[C@H](CCCNC(=N)N)NC(=O)[C@H](Cc1c[nH]cn1)NC(=O)CN)C(=O)N[C@@H](CO)C(=O)NCC(=O)NCC(=O)NCC(=O)N[C@@H](Cc1ccc(O)cc1)C(=O)N[C@@H](CCCNC(=N)N)C(=O)O | VE-cadherin | binding | – | Kd | 267000 nM
CC(=O)N[C@H](C(=O)N[C@H](C(=O)N[C@@H](Cc1ccccc1)C(=O)N[C@H](C(=O)N[C@@H](CO)C(=O)N[C@@H](Cc1c[nH]c2ccccc12)C(=O)N[C@@H](CCC(=O)O)C(=O)N[C@@H](CCC(=O)O)C(=O)N[C@@H](Cc1ccc(O)cc1)C(=O)N[C@@H](CC(C)C)C(=O)N[C@@H](CC(=O)O)C(=O)N[C@@H](Cc1c[nH]c2ccccc12)C(=O)N[C@H](C(N)=O)C(C)C)[C@@H](C)O)C(C)C)[C@@H](C)O | Proprotein convertase subtilisin/kexin type 9 (PCSK9, Homo sapiens, UniProt Q8NBP7) | binding, biolayer interferometry | – | Kd | 660 ± 110 nM
COCC1OC(OC2C3=C(C(C)C)CCC3(C)C=C3C(CCC3(O)COC)C(C)C2O)C(O)C2OC3OC12OC3(C)C1CO1 (stereo not drawn) | 14-3-3 protein zeta/delta, with phosphorylated C-RAF (YWHAZ, Homo sapiens, UniProt P63104) | – | – | EC50 | 65400 ± 7700 nM
CCCC[C@@H](C(=O)N[C@@H](CC(=O)O)C(=O)N[C@@H](Cc1ccccc1)C(N)=O)N(C)C(=O)[C@@H](Cc1c[nH]c2ccccc12)NC(=O)CNC(=O)[C@@H](Cc1ccccc1)NC(=O)[C@@H](N)Cc1ccc(O)cc1 | δ-opioid receptor | binding | – | Ki | 0.55 nM
CN(CCCCCNc1c2c(nc3ccccc13)CCCC2)C1CCC(c2ccc(Cl)c(Cl)c2)c2ccccc21 (stereo not drawn) | Amine oxidase [flavin-containing] A (MAOA, Homo sapiens, UniProt P21397) | inhibitor | – | IC50 | 311 nM
CC1(C)S[C@H]2CS[C@H](CS)N2[C@@H]1C(=O)O | Metallo-beta-lactamase type 2 (blaNDM-1, Klebsiella pneumoniae, UniProt C7C422) | inhibitor | – | Ki | 18000 ± 3000 nM
O=C(C=CN1C2CCC1c1ncnc(NC3CC3)c1C2)c1ccccc1O (stereo not drawn) | Protein polybromo-1, BD2 (PBRM1, Homo sapiens, UniProt Q86U86) | binding, isothermal titration calorimetry | – | Kd | 190 nM
CCN(CC)CCCC[C@H](NC(=O)[C@H](CC(C)C)NC(=O)[C@H](C)NC(=O)[C@H](Cc1ccccc1)NC(=O)c1ccc(C(C)(C)C)cc1)C(=O)N[C@@H](CO)C(=O)OC | human CBX1 chromodomain | – | – | Kd | > 100000 nM
CC(=O)N[C@H]1[C@@H](OC[C@H](NC(=O)CNC(=O)[C@@H]2CCCN2C(=O)[C@H](C)NC(=O)[C@@H]2CCCN2C(=O)[C@@H](N)CCCNC(=N)N)C(=O)N[C@H](C(=O)N[C@@H](C)C(=O)N2CCC[C@H]2C(=O)N2CCC[C@H]2C(=O)N[C@@H](C)C(=O)N[C@@H](Cc2c[nH]cn2)C(=O)NCC(=O)O)[C@@H](C)O)O[C@H](CO)[C@H](O)[C@@H]1O | 14 A monoclonal antibody | SPR | – | Kd | 439 nM

Excerpt of the above:
SMILES | target | assay | setting | measurement | result
CC(C)C[C@@H]1NC(=O)[C@H](CCCNC(=N)N)NC(=O)[C@H](Cc2c[nH]c3ccccc23)NC(=O)[C@H](CC(C)C)NC(=O)[C@H](CC(N)=O)NC(=O)[C@](C)(NC(=O)[C@H](Cc2ccccc2)NC(=O)[C@@H](NC(=O)[C@H](CCC(N)=O)NC(=O)[C@H](CCC(N)=O)NC(=O)[C@H](CO)NC(=O)[C@H](CCC(N)=O)NC(=O)CCNC(=S)Nc2ccc3c(c2)C(=O)OC32c3ccc(O)cc3Oc3cc(O)ccc32)[C@@H](C)O)CCCCCCC=CCCC[C@@](C)(C(=O)N[C@@H](CCC(N)=O)C(=O)N[C@@H](CC(N)=O)C(N)=O)NC(=O)[C@H](CC(C)C)NC1=O | HDM2 | – | – | Kd | 55 ± 11 nM
